# Published values collected from several papers.
# Protocols differ between the studies behind these lines. Numbers after ± are the reported error.
# Cell line: SK-MEL-28
SMILES,read-out,method,notes,quantity,result
Cc1cccc(-c2cccc(C)n2)n1.Cc1cccc(-c2cccc(C)n2)n1.F[P-](F)(F)(F)(F)F.F[P-](F)(F)(F)(F)F.[Ru+2].c1ccc2cc(-c3nc4c5cccnc5c5ncccc5c4[nH]3)ccc2c1,cell viability,,"dark, 1% O2",EC50,72.2 ± 3.8 µM
CN1CCN(C2(CNC3CCN(c4cccc(-c5cc6cc(F)ccc6[nH]5)c4)CC3)CCC2)CC1,,,,GI50,1730 nM
COc1c(CCC[P+](c2ccccc2)(c2ccccc2)c2ccccc2)cc2c(c1OC)OCO2.[I-],,SRB,,LC50,-4.37 log M
N.N.[Cl][Pt][Cl],cell growth,SRB,"dark, normoxia",GI50,1110 nM
Cn1cncc1C1=CN(c2ncnc3[nH]cnc23)CCS1,,,melanoma cell line,CC50,> 200 µM
CCN(CC)c1ccc(C=NNC(=O)CSc2nc3ccccc3c(=O)n2Cc2ccc(S(N)(=O)=O)cc2)c(O)c1,,NCI five-dose screen,,CC50,> 100 µM
N.N.[Cl][Pt][Cl],cell viability,,"dark, 1% O2",EC50,4.63 ± 0.08 µM
COc1cc(CCC[P+](c2ccccc2)(c2ccccc2)c2ccccc2)c(OC)c2c1OCO2.[I-],,SRB,,TGI,-4.85 log M

# A few entries again:
SMILES,read-out,method,notes,quantity,result
N.N.[Cl][Pt][Cl],cell viability,,"dark, 1% O2",EC50,4.63 ± 0.08 µM
